Published values gathered from unrelated publications.
A part holds a random share of what one study measured.

Sample 1
Target: Phosphate system positive regulatory protein PHO4, full length, GST-tagged (PHO4, Saccharomyces cerevisiae, UniProt P07270, residues 1-312)
Technique: competition protein-binding microarray
Molecule type: double-stranded DNA, one strand shown
Sample: in vitro
Tested at: 2 µM
Notes: whole 60-bp probe, lowest competitor level
With: Cbf1 competitor, 0.05 µM
Direction: higher = stronger binding
Shared flanks, not repeated: … GTCTTGATTCGCTTGACGCTGCTG
Target sequence (chain): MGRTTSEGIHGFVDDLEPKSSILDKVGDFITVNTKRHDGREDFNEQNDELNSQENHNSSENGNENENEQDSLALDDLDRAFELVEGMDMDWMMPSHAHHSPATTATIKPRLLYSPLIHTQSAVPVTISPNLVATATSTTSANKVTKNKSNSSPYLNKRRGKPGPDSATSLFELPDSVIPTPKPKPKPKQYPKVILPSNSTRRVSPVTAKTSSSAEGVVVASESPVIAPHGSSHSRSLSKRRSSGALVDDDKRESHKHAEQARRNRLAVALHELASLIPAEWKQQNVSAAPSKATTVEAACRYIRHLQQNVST
`TACTGCATAAATGTTTGTTAGTGTCAATGAGCTTGA` gave a fluorescence intensity of 3640 a.u.
`CTAACGAAGGTTTGTCACCAGACTTACAAGCCAAGT` gave a fluorescence intensity of 2870 a.u.
With `GTCTTGTCTCATTGTCACTTCACTTTCCCCACTTCA` the fluorescence intensity was 4490 a.u.
`TTGTTGGAAAGAACCGTCGTGGGTATAACCAGACAA` has a fluorescence intensity of 6390 a.u.
`TCTGACCCAGAATGGATACGTCCATACCGTAAGGAC` has a fluorescence intensity of 3780 a.u.
`TGCGCAACAACTTTTCACGTGATGTTATGTCTAGAA` has a fluorescence intensity of 10900 a.u.
The fluorescence intensity of `TAAATTAGTATACTGCCCGATCAAACCATCTAGTTA` is reported as 3050 a.u.
For `ATGGGCTCGAAAAATCTCGTGCCAGTGTAGACTCCC`, the fluorescence intensity was 8800 a.u.
With `AGATGCAGGACTCGGCACGTTTTACAATACGTATCG` the fluorescence intensity was 14200 a.u.
For `AAAGCGGTAATTTGAACCGTGGGTGCAGATATCTAT`, the fluorescence intensity was 7250 a.u.
With `ATTTTTTGATATCCACACGTTATTGAGCTCATTGAC` the fluorescence intensity was 9080 a.u.
With `GCCAAGATGATTGAAAACATGACAAAGGAGAAAGTC` the fluorescence intensity was 4220 a.u.
`ACCCCTTTTCAAAAGGTCGTGATTGTTTTCGTAAGA` has a fluorescence intensity of 4830 a.u.
The fluorescence intensity of `CTTCTGTAAATTTGTCACTCTACTTGACGCGCCCCG` is reported as 3160 a.u.
The fluorescence intensity of `CGATCTTGATGTTGTCCCGTGCCAGGTTGTATAATA` is reported as 9180 a.u.
With `AAATTACTAAGTTTTCACGTGCGCTACCCCGTATGA` the fluorescence intensity was 17100 a.u.
With `TACCACACAGTCATACTCGTGATGGATTATGTGGTA` the fluorescence intensity was 8510 a.u.
`AAGACGAAATTCTTGTTCGTGCCGATGTTGCCCTTT` gave a fluorescence intensity of 5580 a.u.
With `CGGAAGACGTAGTGGCAGGTGAGGCGGCGAGTTCAG` the fluorescence intensity was 4290 a.u.
For `GTCTTGTCTCATTGTTCGGTGGGTGTCCCCACTTCA`, the fluorescence intensity was 4740 a.u.
For `CCGATAACTCTTTGGAACGTGTTTCGAAGGAGTTGG`, the fluorescence intensity was 12800 a.u.
With `GGCATACCTGTAAATCACCTGCTAACAAGGAATTCC` the fluorescence intensity was 4550 a.u.
For `CTTCTGTAAATTTGCAGTGTGGGTGGACGCGCCCCG`, the fluorescence intensity was 5050 a.u.
`CATACCCAACCTTGTTGAGTGGGTGAAGATATTTGT` gave a fluorescence intensity of 3960 a.u.

Sample 2
Target: Sal-like protein 4, full length isoform A (SALL4, Homo sapiens, UniProt Q9UJQ4, residues 1-1053)
Chain of UniProt Q9UJQ4 (whole entry, looked up): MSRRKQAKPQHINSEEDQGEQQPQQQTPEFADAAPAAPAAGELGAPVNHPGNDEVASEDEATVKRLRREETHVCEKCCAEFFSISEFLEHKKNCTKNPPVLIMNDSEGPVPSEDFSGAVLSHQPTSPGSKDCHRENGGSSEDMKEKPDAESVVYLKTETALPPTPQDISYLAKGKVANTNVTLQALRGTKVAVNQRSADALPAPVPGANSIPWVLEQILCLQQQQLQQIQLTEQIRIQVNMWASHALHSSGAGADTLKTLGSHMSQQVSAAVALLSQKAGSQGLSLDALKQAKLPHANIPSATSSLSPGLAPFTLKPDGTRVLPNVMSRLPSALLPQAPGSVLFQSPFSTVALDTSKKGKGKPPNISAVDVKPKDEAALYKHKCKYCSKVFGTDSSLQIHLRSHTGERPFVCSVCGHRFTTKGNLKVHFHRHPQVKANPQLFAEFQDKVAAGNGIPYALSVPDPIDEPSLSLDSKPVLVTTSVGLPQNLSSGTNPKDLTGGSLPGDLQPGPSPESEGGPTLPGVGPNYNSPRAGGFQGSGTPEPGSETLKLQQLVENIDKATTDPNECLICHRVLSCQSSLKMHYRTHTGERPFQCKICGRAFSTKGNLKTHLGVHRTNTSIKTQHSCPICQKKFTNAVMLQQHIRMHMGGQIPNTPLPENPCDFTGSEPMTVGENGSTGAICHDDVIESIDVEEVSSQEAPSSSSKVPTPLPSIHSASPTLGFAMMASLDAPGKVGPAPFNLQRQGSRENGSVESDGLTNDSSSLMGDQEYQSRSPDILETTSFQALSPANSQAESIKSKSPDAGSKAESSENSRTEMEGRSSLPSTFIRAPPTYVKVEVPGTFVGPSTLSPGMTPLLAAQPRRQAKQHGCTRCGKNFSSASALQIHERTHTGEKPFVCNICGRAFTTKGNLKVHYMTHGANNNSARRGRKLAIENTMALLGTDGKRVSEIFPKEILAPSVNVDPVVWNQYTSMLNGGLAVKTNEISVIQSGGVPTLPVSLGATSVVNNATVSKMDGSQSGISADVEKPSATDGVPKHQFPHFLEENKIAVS
Technique: universal PBM
Molecule type: double-stranded DNA, one strand shown
Sample: in vitro
Tested at: 600 nM
Notes: 8-mer, flanks averaged, mean of replicates
Direction: higher = stronger binding
The E-score of `GTGGTGCA` is reported as -0.0382.
`AACGTCTA` gave an E-score of 0.137.
With `GCTTTACC` the E-score was 0.0375.
The E-score of `CAGTCGCC` is reported as -0.238.
The E-score of `AGGATGGC` is reported as -0.163.
`ACTTGTTA` gave an E-score of 0.259.
`GCTTCCGA` has an E-score of -0.0475.
With `ACCCTCCC` the E-score was -0.1.
`ATACTGCC` gave an E-score of -0.157.
`CATGCTAC` gave an E-score of -0.209.
The E-score of `ACAGTCGT` is reported as 0.0177.
`GTTGGGTA` has an E-score of -0.0513.
With `ATAAAAGC` the E-score was 0.226.
`ATCCGCTC` has an E-score of -0.311.
`TCCGACGA` gave an E-score of -0.00409.
For `CCAATTTC`, the E-score was 0.135.
`CCCATACG` has an E-score of -0.102.
With `CTAGTGTC` the E-score was -0.0318.
With `CCTCCCCA` the E-score was -0.221.
`TAGTTCGA` gave an E-score of 0.0704.
`CCCAATTA` gave an E-score of 0.0875.

Sample 3
Target: Histone acetyltransferase KAT6A, both winged helices, GST fusion (KAT6A, Homo sapiens, UniProt Q92794, residues 1-181)
Technique: protein binding microarray
Molecule type: double-stranded DNA, one strand shown
Sample: in vitro
Tested at: not given
Notes: 8-mer, flanks averaged, mean of 2 arrays, mostly near background
Relative to: not given
Direction: higher = stronger binding
Construct (chain): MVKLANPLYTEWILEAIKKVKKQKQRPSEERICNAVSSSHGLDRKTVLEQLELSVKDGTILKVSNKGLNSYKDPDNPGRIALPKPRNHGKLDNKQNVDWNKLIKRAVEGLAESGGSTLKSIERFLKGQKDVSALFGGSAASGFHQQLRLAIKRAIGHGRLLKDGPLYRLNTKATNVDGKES
`AGCGCGCG` gave an E-score of 0.401.
For `CCGTTAAC`, the E-score was 0.227.
`GCTGCTCA` gave an E-score of -0.0941.
`AGGCCAAG` gave an E-score of -0.249.
`CTCAAGTC` gave an E-score of -0.158.
The E-score of `ATTAGAGC` is reported as -0.0213.
The E-score of `ACCATAGC` is reported as -0.0681.
With `ACCGAAAA` the E-score was -0.21.
`GCTTACCA` gave an E-score of 0.0182.
`ATATTAAG` gave an E-score of -0.112.
The E-score of `ATACCGCG` is reported as 0.346.
For `ACAGCTTC`, the E-score was -0.044.
The E-score of `AACGGGCC` is reported as 0.181.
With `CTTGAACA` the E-score was 0.0597.
The E-score of `CGGGAGCA` is reported as 0.133.
For `CAAAATCG`, the E-score was -0.0644.
`GGGGCCTA` gave an E-score of -0.114.
For `ATTACCGG`, the E-score was 0.184.
The E-score of `ACAACTGT` is reported as -0.00231.
`AATATCCC` has an E-score of 0.0116.
`TAGTAAAA` has an E-score of 0.019.
The E-score of `CACGATAA` is reported as -0.0925.
With `GTGGCCGA` the E-score was 0.0901.
With `GGCCATTA` the E-score was -0.0348.
`ACGATACG` gave an E-score of 0.0367.

Sample 4
Target: PABPC1L2, full length, GST fusion (mouse, UniProt A0ABA7IW68)
Technique: RNAcompete
Molecule type: RNA
Sample: in vitro
Tested at: 20 nM
Notes: 7-mer, probes averaged, single round
Relative to: mean of 7-mers
Direction: higher = stronger binding
Residues (chain): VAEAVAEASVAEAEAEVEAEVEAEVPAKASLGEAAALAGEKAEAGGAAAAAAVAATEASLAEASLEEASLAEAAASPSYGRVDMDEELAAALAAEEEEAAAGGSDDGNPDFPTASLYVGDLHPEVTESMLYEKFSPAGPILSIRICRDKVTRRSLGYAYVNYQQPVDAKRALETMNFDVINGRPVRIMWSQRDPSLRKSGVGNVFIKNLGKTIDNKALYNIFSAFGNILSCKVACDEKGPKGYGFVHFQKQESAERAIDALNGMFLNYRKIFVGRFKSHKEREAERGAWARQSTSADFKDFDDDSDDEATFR
`UUCUCAG` gave a 7-mer Z-score of -0.369.
`CUUAUCC` has a 7-mer Z-score of -0.391.
`AGGAGAG` gave a 7-mer Z-score of 0.209.
With `AGAUCAA` the 7-mer Z-score was 0.0768.
`GACGCGC` gave a 7-mer Z-score of -0.257.
With `ACAUUCA` the 7-mer Z-score was 0.00617.
For `CCCACUU`, the 7-mer Z-score was -0.155.
For `AACAUUG`, the 7-mer Z-score was 0.437.
The 7-mer Z-score of `CGGUUGC` is reported as -0.364.

Sample 5
Target: RNA binding protein fox-1 homolog 2, RRM domain, GST-SBP tag (RBFOX2, Homo sapiens, UniProt O43251-10, residues 100-194)
Technique: RNA Bind-n-Seq
Molecule type: RNA
Sample: in vitro
Tested at: 365 nM
Notes: natural RNA segment, single round, ends assumed
Relative to: no-protein control
Direction: higher = stronger binding
Shared flanks, not repeated: GGGAGUUCUACAGUCCGACGAUC … UGGAAUUCUCGGGUGCCAA
Construct (chain): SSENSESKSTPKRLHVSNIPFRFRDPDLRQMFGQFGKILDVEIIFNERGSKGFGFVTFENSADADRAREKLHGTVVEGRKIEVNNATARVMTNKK
`UUUUCUCCUCCCAGUAAAUCUCAGUGAUGAUGUCAUGGUGAUUGAGUAGGAUGAGGCCUGUAUUACCGAAGUCUGGGAGCAUAAUUGAACUUGGUCUUCUGUGUUCUAGA` — result for “RBNS enrichment (R)”: 0.384.
Under “RBNS enrichment (R)”, `GAAAAGGUAUGGUAAAAAUACAAUUUUAUAAUCUUAUGGGACUACCAUCAAUAUGUAGACCGUCAUUGACCAAAACAUCCUGAUGUGUGCAUGACUGUACUUUUCAUUAA` is recorded as 2.24.
For `CAGGUCUGCAGGUCGGUUUGCUGCCUGCCCUCCUCCUCUCACCCGAUGUCCAGGUGGGAUUUUAAAGUCUGCAUUGGUUAUAAUAACAGUUAUCAGUAAUUCCUGCCCAG`, “RBNS enrichment (R)” read 0.714.
For `UUCCUGCCAGAAACGACCCUCUGUGGCCGAUGGGCCAUGCGGGCCCCUCGCAGCCAACUCAGCCAGUGUUGGGACUGGCUCAGAGCCCAUGGGGGCUGGAGGGGGGCAGC`, “RBNS enrichment (R)” read 0.699.
`GUUAGGUGAUGGAGCCCAUUCAAGGAGCAUUUGGUGUUGGGUCAGGGUUGCCAAUAGAACACUGUGUCCCAGCUGCCCCCAACUUGCCAGAAGAACCAGCACUUACUUCU` — result for “RBNS enrichment (R)”: 0.549.
Under “RBNS enrichment (R)”, `CAGUGGAGUGGUGACACGUGCCAGCGGUCACUCUGCCACAUCACUUCCUUCUUGAAAGCCUAAGAGUGCGUAUGCGUGUGUGUGUGUGUGUGUGUGUGUACGUGAGGCAG` is recorded as 1.03.
For `GCCUAGCAAUUUGAGCUCUCAGCAGUGAGAAGACCCCGCCCUGCCUUCAUUAGAGCUAUCAAUACUGAGUGGCUAGAACUCCAGGGACUGUGUGGGUUGCUCUGUUUUCU`, “RBNS enrichment (R)” read 0.655.
Under “RBNS enrichment (R)”, `AAGAAAUGGAAUUUAUUUAAAUACUGUUUAAGCUCAUGCUUGACACUAGUGGGACAGCGGUUUUCAAUGGUGCUGAUCAGUCGACUCGUCAACUCCUGUCAUUUUUAGAA` is recorded as 0.452.
For `ACUCUGUAAAAUUCACAGCAGUAAAUAUUGUUUUGUUGAAUGUAUUAACAUCUUAUGGUCUGAAAAUGUGGGUUUUUAUUUGACACGUUUAAAUAAAAUGUUUCUAACUA`, “RBNS enrichment (R)” read 0.6.
`AGGUCACAUGUAUAAAAUUAGCUUUUGUGUAUGUAUACCGUUUAAAGGAUUCCCCCACCCCCACUCCAGGGGGAAAAAAGGAAGUAUCAUACUAUUGAGAGAGAAGUUAU` — result for “RBNS enrichment (R)”: 0.625.
`AUUAUAAACAAUAUAUUCAAAAUGGGCAAAUUUUAUUUUCAAAUGCAGUGUAGAGCUAGAUUAAAAGCAACUCUUUGCCACCUACUCUGCCCUUUUGGCAAAGUUACCUU`: “RBNS enrichment (R)” 0.537.
Under “RBNS enrichment (R)”, `AGAGAAACAGAACAGCGAUCACUAACCGUUCCGCCGCCCACCCUCUGCUAGACACAGCCAAGGCCAACGAGGCAAGCAGAAGCAGCGGCCGCAGCGAAGCUGCCGUUCAU` is recorded as 0.283.

Repeated from above (sample 2):
`ACTTGTTA` gave an E-score of 0.259.
`GCTTCCGA` has an E-score of -0.0475.
With `ACCCTCCC` the E-score was -0.1.
`ATACTGCC` gave an E-score of -0.157.
`CATGCTAC` gave an E-score of -0.209.
The E-score of `ACAGTCGT` is reported as 0.0177.
`GTTGGGTA` has an E-score of -0.0513.
With `ATAAAAGC` the E-score was 0.226.
`ATCCGCTC` has an E-score of -0.311.
